Published values of several laboratories.
Numbered parts are unrelated; each lists some results of a single study. Substitutions count along the parent as printed.

Sample 1
Target: Histone acetyltransferase KAT6A, both winged helices, GST fusion (KAT6A, Homo sapiens, UniProt Q92794, residues 1-181)
Technique: protein binding microarray
Form: double-stranded DNA, one strand shown
Matrix: in vitro
Tested at: not given
Setting: 8-mer, flanks averaged, mean of 2 arrays, mostly near background
Reference: not given
Reading: higher = stronger binding
Target sequence (chain): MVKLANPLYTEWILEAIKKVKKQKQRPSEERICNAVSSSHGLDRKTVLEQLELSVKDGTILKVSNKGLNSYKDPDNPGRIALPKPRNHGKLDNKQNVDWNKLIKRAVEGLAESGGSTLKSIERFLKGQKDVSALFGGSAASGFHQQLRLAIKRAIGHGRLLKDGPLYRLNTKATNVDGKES
| Oligonucleotide | E-score |
| --- | --- |
| ATTCCCCA | -0.294 |
| CTTCAAGC | -0.0447 |
| GAAGCCAA | -0.173 |
| GGACAGCA | -0.128 |
| CGATTTGA | -0.177 |
| AACTACAT | -0.202 |
| AGTTGATG | -0.189 |
| AAGTACGT | -0.0683 |
| CGGGCGTA | 0.278 |
| CACGGTAA | 0.183 |
| AACTCTCT | -0.227 |
| GATTAGCA | -0.0128 |
| CTCACACA | -0.0508 |
| ATCACTAC | -0.142 |
| CTACCGGA | 0.0729 |
| CCACGATA | -0.265 |
| AGCCGGCG | 0.373 |
| GACAGTAC | -0.0512 |
| ACTTGAAG | -0.137 |

Sample 2
Target: Centromere-binding protein 1, full length, His-tagged (CBF1, Saccharomyces cerevisiae, UniProt P17106, residues 1-351)
UniProt P17106, sequence (whole entry, looked up): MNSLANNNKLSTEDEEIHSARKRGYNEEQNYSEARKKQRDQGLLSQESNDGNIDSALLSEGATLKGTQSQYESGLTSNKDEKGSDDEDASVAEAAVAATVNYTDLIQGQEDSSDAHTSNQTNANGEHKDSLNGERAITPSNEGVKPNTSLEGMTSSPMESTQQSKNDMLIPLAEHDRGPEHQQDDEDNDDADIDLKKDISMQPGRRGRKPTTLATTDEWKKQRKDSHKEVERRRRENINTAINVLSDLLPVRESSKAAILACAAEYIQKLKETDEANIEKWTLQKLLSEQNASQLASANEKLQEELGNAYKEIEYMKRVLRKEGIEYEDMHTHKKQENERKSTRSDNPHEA
Technique: competition protein-binding microarray
Form: double-stranded DNA, one strand shown
Matrix: in vitro
Tested at: 2 µM
Setting: whole 60-bp probe, lowest competitor level
Added: Pho4 competitor, 0.05 µM
Reading: higher = stronger binding
Constant ends, left off below: … GTCTTGATTCGCTTGACGCTGCTG
| Oligonucleotide | fluorescence intensity [a.u.] |
| --- | --- |
| TGTGGGGACGTCGTTCACGTGCAAAAGTCGCCAAAT | 1420 |
| CATACCCAACCTTTTCACGTGGGTTAAGATATTTGT | 962 |
| CTTTCCCGATCTTGGCCGGTGGGTGTAGCACATTTG | 75.8 |
| TTGAGCACTTGAGTATACGTGATGGAGCACACAAAG | 98.2 |
| GTCTTGTCTCATTGAGTGGTGGGTGTCCCCACTTCA | 57.4 |
| AATCCCTTATCCCGTCACGTGAATTAAACTTCGGGT | 5590 |
| AATATAACTCAACAAAACGTGACGGAAAATCAAATG | 924 |
| TAGAGAATGGCAATGCTCGTGCTAAAGGTGAAAAAA | 92 |
| GTTCTGGGTATTTCGCATGTGGATGGGTTCAGTGTC | 86.5 |
| TGCTGTAGAGTTCACCACGTGAGGTAAATATTGGGA | 1600 |
| CAGAAAGAATAGCGCCTCGTGGAATCTTGGCACCCA | 81.2 |
| CCTGCCCAGACCCTCCACGTGGGCACAGCAGCCAGG | 548 |
| ACAAGGAAGGTATTCCACCTGACGAACAAAGATTGA | 150 |

Sample 3
Target: CCND3, cyclin fold, Cln2 fusion (human)
Technique: yeast growth competition, sequencing
Matrix: yeast
Setting: weak parent motif
Reference: not given
Reading: higher = stronger binding
Starting sequence: USP37 docking peptide (human); PSAKRSLGFLPQP
| Substitution | normalised enrichment score |
| --- | --- |
| PSAKASLGFLPQP [R5A] | 0.0587 |
| PSAKRSLGFAPQP [L10A] | 0.212 |
| PSAKRALGFLPQP [S6A] | 0.412 |
| PSAKRSAGFLPQP [L7A] | 0.157 |
| PSAKRSLGALPQP [F9A] | -0.108 |
| ASAKRSLGFLPQP [P1A] | -0.000533 |

Sample 4
Target: Interferon regulatory factor 5, full length, phosphomimetic (IRF5, Homo sapiens, UniProt Q13568-2, residues 1-514, K96S/S451D/S453D/S456D/S462D)
Technique: protein-binding microarray
Form: double-stranded DNA, one strand shown
Matrix: in vitro
Tested at: 250 nM
Setting: 60-bp whole probe
Added: salmon DNA 0.4 mg/ml
Reference: random background probes
Reading: higher = stronger binding
Constant ends, left off below: GCCTAGCAC … GTCTTGATTCGCTTGACGCTGCTG
| Oligonucleotide | log fluorescence |
| --- | --- |
| TTAGGTATCGGGATCGGTTAGTGCTAG | 2.73 z-score |
| TCAGTTCTGAGTCTTCCACTGTGCTAG | -0.179 z-score |
| GACGGTTTCGGGTTTCGAGACGTGCTA | 8.02 z-score |
| GACGATTTCAGTAACGAGACGTGCTAG | 1.27 z-score |
| TTAGGTTTCGGGACTCGGTTAGTGCTA | 5.84 z-score |
| GACGGTATACTTTTCCTGACGTGCTAG | 0.3 z-score |
| CCACATTTGATAAATCTTTGTGTGCTA | 0.495 z-score |
| CTTTAACTCATTCTCTGTTTGTGCTAG | 0.896 z-score |
| TCATCTCTGAAGACTCTCACTGTGCTA | 0.482 z-score |
| TTAGATTTCAGACTTGATTAGTGCTAG | 0.486 z-score |
| TTAGGTATCTGGACTGGGTTAGTGCTA | -0.0581 z-score |
| TCAGAAATCGGTGATCAGACTGTGCTA | 0.391 z-score |
| TTAGATTTCGGGTATCCATTAGTGCTA | 5.81 z-score |

Sample 5
Target: ABI1, truncated, D143A, DHFR fusion (Arabidopsis thaliana)
Technique: DHFR PCA, deep sequencing
Matrix: yeast
Setting: methotrexate growth selection, single substitutions
Added: (+)-ABA 1.4 µM
Reference: wild-type fitted maximum
Reading: higher = stronger binding
Starting sequence: PYL1, truncated, DHFR fusion (Arabidopsis thaliana); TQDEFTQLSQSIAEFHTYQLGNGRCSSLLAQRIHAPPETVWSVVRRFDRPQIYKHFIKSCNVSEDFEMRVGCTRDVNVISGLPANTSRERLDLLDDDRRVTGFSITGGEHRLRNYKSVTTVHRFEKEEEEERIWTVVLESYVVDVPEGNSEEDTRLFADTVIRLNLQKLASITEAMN
| Substitution | relative binding score [%] |
| --- | --- |
| S80D | 8 |
| N114S | 7.29 |
| S63H | 42 |
| S87L | 9.62 |
| E129P | 76.4 |
| R111V | -3.11 |
| G23W | 5.66 |
| G102F | 0.145 |
| T101C | 42.4 |
| I162Y | -1.6 |
| R163S | 34.4 |
| S171H | 56.8 |
| G108Y | -21.6 |
| V161A | 16 |
| G108S | -5.94 |
